Experimental data from different studies.
Compare with care: the assays were run in different laboratories. ± marks the error that the study gave.
Chain of UniProt P55210 (whole entry, looked up): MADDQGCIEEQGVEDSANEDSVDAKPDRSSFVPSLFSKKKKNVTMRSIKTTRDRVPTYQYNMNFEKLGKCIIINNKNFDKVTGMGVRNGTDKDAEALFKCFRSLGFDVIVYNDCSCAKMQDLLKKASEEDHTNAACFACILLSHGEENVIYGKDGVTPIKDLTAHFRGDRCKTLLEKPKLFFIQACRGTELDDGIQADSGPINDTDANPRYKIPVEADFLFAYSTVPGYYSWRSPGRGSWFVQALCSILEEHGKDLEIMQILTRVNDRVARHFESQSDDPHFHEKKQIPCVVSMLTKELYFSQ
Chain of UniProt P56817 (whole entry, looked up): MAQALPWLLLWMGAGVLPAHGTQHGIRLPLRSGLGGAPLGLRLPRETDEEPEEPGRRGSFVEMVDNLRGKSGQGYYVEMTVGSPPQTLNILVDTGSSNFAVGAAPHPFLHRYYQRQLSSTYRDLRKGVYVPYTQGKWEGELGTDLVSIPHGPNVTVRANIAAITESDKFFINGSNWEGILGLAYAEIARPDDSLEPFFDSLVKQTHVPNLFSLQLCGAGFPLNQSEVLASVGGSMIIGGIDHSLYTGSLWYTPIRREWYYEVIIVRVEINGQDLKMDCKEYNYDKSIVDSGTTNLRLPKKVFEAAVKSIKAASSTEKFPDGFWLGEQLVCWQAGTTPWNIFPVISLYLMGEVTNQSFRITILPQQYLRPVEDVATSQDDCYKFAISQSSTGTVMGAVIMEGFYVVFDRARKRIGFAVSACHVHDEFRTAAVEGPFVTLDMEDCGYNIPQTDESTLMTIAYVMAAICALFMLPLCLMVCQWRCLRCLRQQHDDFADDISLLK
Chain of UniProt Q96SW2 (whole entry, looked up): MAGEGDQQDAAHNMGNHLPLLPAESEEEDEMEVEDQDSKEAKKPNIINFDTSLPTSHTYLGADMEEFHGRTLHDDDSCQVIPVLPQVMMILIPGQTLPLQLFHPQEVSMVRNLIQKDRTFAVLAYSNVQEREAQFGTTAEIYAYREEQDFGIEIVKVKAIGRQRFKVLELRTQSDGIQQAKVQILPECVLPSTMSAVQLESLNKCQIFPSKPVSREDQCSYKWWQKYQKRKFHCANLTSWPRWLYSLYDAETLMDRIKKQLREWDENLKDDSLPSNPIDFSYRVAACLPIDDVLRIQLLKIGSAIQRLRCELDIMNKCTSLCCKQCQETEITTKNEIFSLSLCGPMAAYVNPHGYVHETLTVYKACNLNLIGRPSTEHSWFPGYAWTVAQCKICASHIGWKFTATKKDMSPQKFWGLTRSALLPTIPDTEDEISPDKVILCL
Chain of UniProt P23975 (whole entry, looked up): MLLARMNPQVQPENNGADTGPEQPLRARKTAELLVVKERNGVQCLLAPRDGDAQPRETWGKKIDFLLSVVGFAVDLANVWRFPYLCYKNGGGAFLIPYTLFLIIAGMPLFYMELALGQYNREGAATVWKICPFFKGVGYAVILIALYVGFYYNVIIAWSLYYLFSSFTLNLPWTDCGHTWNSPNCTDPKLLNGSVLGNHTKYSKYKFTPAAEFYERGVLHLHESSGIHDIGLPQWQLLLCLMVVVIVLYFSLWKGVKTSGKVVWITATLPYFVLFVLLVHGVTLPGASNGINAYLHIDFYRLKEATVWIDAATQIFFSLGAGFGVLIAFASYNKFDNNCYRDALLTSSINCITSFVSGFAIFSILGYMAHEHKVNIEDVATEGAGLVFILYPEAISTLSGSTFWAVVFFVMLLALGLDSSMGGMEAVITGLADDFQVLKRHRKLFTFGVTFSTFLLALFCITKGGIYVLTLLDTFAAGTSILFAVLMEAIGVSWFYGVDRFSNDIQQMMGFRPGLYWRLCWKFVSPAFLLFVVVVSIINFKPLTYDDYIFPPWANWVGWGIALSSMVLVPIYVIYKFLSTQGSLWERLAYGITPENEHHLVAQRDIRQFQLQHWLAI
Chain of UniProt Q13393 (whole entry, looked up): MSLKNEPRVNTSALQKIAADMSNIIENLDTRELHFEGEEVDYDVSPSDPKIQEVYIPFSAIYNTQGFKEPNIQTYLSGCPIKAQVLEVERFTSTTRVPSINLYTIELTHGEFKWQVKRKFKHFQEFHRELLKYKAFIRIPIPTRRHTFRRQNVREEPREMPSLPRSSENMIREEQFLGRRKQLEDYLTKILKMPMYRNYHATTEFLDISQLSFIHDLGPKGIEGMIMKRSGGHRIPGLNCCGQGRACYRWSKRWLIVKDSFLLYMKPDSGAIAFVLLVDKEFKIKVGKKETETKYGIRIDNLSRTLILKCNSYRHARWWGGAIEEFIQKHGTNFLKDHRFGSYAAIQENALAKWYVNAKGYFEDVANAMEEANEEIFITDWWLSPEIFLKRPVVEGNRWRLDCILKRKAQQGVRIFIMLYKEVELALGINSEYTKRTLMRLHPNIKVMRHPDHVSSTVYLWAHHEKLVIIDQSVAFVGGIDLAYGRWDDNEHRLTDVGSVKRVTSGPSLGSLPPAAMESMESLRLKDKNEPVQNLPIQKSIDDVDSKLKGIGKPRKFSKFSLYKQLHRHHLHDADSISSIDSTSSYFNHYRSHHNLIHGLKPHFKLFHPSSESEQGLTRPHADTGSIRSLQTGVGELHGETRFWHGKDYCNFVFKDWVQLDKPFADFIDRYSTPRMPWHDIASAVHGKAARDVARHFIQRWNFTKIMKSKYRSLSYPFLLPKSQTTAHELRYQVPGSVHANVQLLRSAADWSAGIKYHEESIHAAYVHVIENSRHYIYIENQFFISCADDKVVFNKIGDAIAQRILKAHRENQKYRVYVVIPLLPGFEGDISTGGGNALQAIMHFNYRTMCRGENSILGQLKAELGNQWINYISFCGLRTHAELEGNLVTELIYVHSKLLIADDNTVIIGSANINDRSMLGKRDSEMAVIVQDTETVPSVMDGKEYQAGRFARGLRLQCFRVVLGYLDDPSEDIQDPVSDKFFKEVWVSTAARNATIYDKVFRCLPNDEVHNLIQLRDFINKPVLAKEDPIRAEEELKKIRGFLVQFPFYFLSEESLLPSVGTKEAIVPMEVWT
Chain of UniProt P97612 (whole entry, looked up): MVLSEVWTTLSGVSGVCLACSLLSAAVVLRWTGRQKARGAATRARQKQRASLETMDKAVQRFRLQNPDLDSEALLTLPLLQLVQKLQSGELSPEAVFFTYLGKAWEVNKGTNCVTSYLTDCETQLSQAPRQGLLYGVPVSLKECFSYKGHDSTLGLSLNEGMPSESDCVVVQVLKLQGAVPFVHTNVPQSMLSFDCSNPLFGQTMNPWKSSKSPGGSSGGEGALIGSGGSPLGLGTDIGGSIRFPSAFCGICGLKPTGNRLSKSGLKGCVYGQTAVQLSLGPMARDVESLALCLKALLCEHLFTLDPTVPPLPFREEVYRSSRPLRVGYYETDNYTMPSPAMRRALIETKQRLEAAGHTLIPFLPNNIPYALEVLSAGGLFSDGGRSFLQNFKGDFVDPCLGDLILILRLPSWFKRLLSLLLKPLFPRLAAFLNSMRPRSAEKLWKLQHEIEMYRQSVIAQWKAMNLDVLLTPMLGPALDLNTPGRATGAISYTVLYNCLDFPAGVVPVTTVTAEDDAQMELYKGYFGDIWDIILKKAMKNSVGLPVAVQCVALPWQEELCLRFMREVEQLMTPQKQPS
Chain of UniProt P52895 (whole entry, looked up): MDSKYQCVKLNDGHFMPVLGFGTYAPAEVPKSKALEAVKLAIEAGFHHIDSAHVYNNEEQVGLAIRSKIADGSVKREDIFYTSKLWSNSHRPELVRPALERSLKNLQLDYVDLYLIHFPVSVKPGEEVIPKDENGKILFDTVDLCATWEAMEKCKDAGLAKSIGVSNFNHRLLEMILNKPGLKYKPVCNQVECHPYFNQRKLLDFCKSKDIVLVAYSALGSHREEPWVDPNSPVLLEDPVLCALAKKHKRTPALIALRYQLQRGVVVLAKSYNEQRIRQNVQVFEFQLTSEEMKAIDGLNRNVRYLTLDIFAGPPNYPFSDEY

Compound | target | test | system | conditions | IC50 [nM]
CC(=O)N[C@@H](Cc1ccccc1)C(=O)N[C@@H](CC(C)C)C(=O)N[C@H](C(=O)N[C@@H](CC(=O)O)C(=O)CCl)[C@@H](C)O | Caspase-7 (CASP7, Homo sapiens, UniProt P55210) | enzyme activity, inhibitor, fluorescence |  |  | 53500
CC(C)C[C@H](c1ccc(Cl)cc1)[C@H]1CCCCN1 | SLC6A2 (Homo sapiens, UniProt P23975) | inhibitor |  |  | 210 ± 24
CC1C(=NOCc2cc(-c3ccc(Cl)cc3)no2)C(C)C(c2ccc(Cl)cc2)OC1c1ccc(Cl)cc1 (stereo not drawn) | gyrB (Escherichia coli, UniProt P0AES6) | ATPase activity, inhibitor |  |  | 4120
O=C(NCCCCCn1ccc2ccc(F)cc21)Oc1ccccc1F | Faah (Rattus norvegicus, UniProt P97612) |  | rat brain homogenate | 60 min, 37 °C | 17
C=C1C(=O)N[C@@H](C)C(=O)N(C)[C@@H](C)C(=O)N[C@@H]([C@H](OC(=O)[C@@H](NC(C)=O)[C@H](O)C(C)C)C(C)C)C(=O)N(C)[C@@H]([C@@H](C)OC)C(=O)O[C@H](C)[C@H](NC(C)=O)C(=O)O[C@H](Cc2ccccc2)C(=O)N1C | Guanine nucleotide binding protein q polypeptide (Cricetulus griseus, UniProt Q3HR10) | inositol phosphate, antagonist, TR-FRET |  |  | 93.3
CC[C@H](C)[C@@H]1NC(=O)[C@H](Cc2ccccc2)NC(=O)[C@H](C)NC(=O)[C@@H](NC(=O)[C@@H](NC(=O)[C@H](CO)NC(=O)[C@@H](N)Cc2ccc(O)cc2)[C@@H](C)O)CSC(=O)[C@H](CCSC)NC1=O | agrC (Staphylococcus aureus, UniProt O07911) |  |  |  | 0.214
C[C@@]12CC[C@@H]3c4ccc(O)c(Cl)c4CC[C@H]3[C@@H]1CCC2=O | AKR1C2 (Homo sapiens, UniProt P52895) | enzyme activity, inhibitor, absorbance |  | pH 9 | 1800
CC[C@H](C)[C@H](N)C(=O)N[C@@H](CO)C(=O)N[C@@H](CCC(N)=O)C(=O)N[C@H](C(=O)N[C@@H](CC(N)=O)C(=O)N[C@@H](CCC(=O)O)C(=O)N[C@@H](CCCCN)C(=O)N[C@H](C(=O)N[C@@H](CC(N)=O)C(=O)N[C@@H](CCC(N)=O)C(=O)N[C@@H](CO)C(=O)N[C@@H](CC(C)C)C(=O)N[C@@H](C)C(=O)N[C@@H](Cc1ccccc1)C(=O)N[C@H](C(=O)N[C@@H](CCCNC(=N)N)C(=O)N[C@@H](CCCCN)C(=O)N[C@@H](CO)C(=O)N[C@@H](CC(=O)O)C(=O)N[C@@H](CCC(=O)O)C(=O)N(CCOC)CC(=O)N(CCOC)CC(=O)N(CCOC)CC(=O)N(CCOC)CC(=O)N(CCOC)CC(N)=O)[C@@H](C)CC)[C@@H](C)CC)C(C)C | hRSV fusion protein 5-helix bundle | binding, fluorescence polarization |  | together with: Fl-C35 tracer 5 nM | > 200000
O=C(O)CC(O)(CC(=O)O)C(=O)O | IMP-28 metallo-beta-lactamase | enzyme activity, inhibitor, FC5 fluorescent substrate |  | 60 pM enzyme, 1 µM ZnSO4 | > 200000
O=C(NCCN1CCC2(CC1)C(=O)NCN2Cc1cccnc1)c1cc2cc(F)ccc2[nH]1 | Phospholipase D1 (Homo sapiens, UniProt Q13393) | enzyme activity, inhibitor |  |  | 3100
CC(C)=CCCC1(C)C=Cc2c(ccc3cc(-c4cc(O)cc(O)c4CC=C(C)C)oc23)O1 (stereo not drawn) | Beta-secretase 1 (BACE1, Homo sapiens, UniProt P56817) | enzyme activity, inhibitor, FRET |  |  | < 1000
Cc1ccc(NC(=O)CCc2cccc(NC3=CC(=O)N(C4CCC(=O)NC4=O)C3=O)c2)cc1Cl (stereo not drawn) | Protein cereblon (CRBN, Homo sapiens, UniProt Q96SW2) | ligand displacement, TR-FRET |  |  | 550

Excerpt of the above:
Compound | target | test | system | conditions | IC50 [nM]
CC[C@H](C)[C@@H]1NC(=O)[C@H](Cc2ccccc2)NC(=O)[C@H](C)NC(=O)[C@@H](NC(=O)[C@@H](NC(=O)[C@H](CO)NC(=O)[C@@H](N)Cc2ccc(O)cc2)[C@@H](C)O)CSC(=O)[C@H](CCSC)NC1=O | agrC (Staphylococcus aureus, UniProt O07911) |  |  |  | 0.214
C[C@@]12CC[C@@H]3c4ccc(O)c(Cl)c4CC[C@H]3[C@@H]1CCC2=O | AKR1C2 (Homo sapiens, UniProt P52895) | enzyme activity, inhibitor, absorbance |  | pH 9 | 1800
